# Earlier results as cited in several papers.
# Each line is one published result; not all experiments were run side by side. ± marks the error that the study gave.
# Sequence of UniProt Q9NSY1 (whole entry, looked up): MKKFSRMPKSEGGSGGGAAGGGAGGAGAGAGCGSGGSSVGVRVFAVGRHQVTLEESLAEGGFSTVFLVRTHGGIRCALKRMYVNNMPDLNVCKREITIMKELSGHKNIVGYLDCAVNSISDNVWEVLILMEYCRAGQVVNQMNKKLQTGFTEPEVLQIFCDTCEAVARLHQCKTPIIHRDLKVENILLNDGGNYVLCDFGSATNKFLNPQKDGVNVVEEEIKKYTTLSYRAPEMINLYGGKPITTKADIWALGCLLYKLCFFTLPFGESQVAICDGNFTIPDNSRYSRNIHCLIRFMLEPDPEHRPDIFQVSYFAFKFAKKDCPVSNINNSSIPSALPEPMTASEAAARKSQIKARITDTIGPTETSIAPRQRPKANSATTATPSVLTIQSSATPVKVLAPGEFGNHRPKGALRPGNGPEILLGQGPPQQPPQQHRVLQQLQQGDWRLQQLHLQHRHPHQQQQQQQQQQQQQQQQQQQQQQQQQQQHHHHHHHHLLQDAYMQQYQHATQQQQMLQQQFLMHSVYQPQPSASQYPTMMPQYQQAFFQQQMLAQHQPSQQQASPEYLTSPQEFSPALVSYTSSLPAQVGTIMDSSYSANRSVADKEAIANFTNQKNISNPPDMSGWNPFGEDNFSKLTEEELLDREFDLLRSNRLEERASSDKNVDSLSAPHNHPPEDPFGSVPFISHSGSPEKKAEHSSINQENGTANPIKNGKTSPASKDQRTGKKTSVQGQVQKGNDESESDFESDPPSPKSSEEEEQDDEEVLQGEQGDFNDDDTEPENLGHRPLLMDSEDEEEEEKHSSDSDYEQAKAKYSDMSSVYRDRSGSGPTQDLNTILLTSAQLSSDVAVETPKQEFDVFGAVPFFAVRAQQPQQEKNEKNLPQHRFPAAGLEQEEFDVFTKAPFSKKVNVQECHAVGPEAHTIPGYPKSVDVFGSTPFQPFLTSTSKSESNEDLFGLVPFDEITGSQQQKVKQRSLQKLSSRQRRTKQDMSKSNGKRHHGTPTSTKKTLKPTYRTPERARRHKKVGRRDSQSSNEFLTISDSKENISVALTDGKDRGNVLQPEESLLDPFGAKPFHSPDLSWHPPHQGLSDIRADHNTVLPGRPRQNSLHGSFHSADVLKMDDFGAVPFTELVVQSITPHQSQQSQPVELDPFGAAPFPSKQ
# Sequence of UniProt P42336 (whole entry, unmodified, looked up): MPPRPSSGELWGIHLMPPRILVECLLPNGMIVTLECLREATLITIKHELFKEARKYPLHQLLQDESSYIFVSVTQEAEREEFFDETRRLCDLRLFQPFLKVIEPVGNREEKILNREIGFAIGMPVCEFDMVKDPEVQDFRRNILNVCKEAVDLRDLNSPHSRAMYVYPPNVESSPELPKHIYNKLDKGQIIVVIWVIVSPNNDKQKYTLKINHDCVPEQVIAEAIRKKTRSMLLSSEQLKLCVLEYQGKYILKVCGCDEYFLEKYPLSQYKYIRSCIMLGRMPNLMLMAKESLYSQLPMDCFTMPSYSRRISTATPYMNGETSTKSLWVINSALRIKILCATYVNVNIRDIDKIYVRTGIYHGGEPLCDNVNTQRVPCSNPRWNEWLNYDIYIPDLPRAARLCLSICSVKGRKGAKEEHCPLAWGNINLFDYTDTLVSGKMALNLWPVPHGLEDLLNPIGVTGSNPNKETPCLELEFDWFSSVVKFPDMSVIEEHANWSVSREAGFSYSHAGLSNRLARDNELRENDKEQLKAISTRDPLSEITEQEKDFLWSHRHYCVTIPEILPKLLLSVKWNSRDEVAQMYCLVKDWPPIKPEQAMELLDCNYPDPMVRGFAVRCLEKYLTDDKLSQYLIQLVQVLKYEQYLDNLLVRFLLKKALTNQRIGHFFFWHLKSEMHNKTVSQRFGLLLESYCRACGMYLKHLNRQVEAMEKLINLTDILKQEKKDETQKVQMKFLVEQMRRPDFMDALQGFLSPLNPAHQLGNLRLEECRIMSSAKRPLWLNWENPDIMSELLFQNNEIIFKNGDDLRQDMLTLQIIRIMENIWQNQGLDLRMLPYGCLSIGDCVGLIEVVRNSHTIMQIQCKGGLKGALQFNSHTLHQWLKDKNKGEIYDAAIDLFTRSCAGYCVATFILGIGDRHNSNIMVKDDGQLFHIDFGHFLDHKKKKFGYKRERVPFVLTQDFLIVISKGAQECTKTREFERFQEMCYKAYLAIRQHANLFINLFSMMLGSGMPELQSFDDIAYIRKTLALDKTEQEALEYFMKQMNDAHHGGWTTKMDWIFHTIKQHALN
Structure (SMILES),tested on,test,system,conditions,measurement,result
CCN(CC)C(=O)[C@@H]1C=C2c3cccc4[nH]cc(c34)C[C@H]2N(C)C1,"serotonin receptor (rat), non-selective","binding, radioligand binding",cortical membranes,,Kd,7.2 nM
COC(=O)[C@@H]1C[C@H](OC(C)=O)C(=O)[C@H]2[C@@]1(C)CC[C@H]1C(=O)O[C@H](c3ccoc3)C[C@]21C,kappa opioid receptor M112L,,,,Ki,73.5 ± 20.8 nM
O=C(NC(=O)c1c(F)cccc1F)Nc1cc(Cl)c(OC(F)(F)C(F)F)c(Cl)c1,aromatase,Tox21 Aro-ER-tri,,,IC50,840 nM
C=C[C@@H]1C[C@]1(NC(=O)[C@@H]1C[C@@H]2CN1C(=O)[C@H](C(C)(C)C)NC(=O)O[C@@H]1C[C@H]1CCCCCc1nc3ccc(OC)cc3nc1O2)C(=O)NS(=O)(=O)C1CC1,CYP2C8,inhibitor,,,IC50,6000 nM
CCN(CC)CCCC(C)Nc1ccnc2cc(Cl)ccc12 (stereo not shown),sigma-1 receptor,binding,,,Ki,100 nM
CC(C)c1cc2c(c(O)c1O)[C@@]1(C(=O)O)CCCC(C)(C)[C@@H]1CC2,glutathione S-transferase,inhibitor,,,Ki,28000 ± 9000 nM
CCCCCCC(C)(C)c1cc(OC)c(C2C=C(CO)C3CC2C3(C)C)c(OC)c1 (stereo not shown),"cannabinoid CB1 receptor, rat",binding,,,Ki,> 10000 nM
COc1ncccc1-c1cnn2ccc(N3CCN(C(=O)OC(C)C)CC3)nc12,"BMP-2-inducible protein kinase (BMP2K, Homo sapiens, UniProt Q9NSY1)",,,,Kd,14 nM
COC(=O)C[C@@H]1N=C(c2ccc(Cl)cc2)c2c(sc(C)c2C)-n2c(C)nnc21,"Bromodomain-containing protein 4, BD1 (BRD4, Homo sapiens, UniProt O60885)",biochemical,,bromodomain 1,IC50,30 nM
COC(=O)[C@H]1[C@@H](c2ccc(F)cc2)C[C@@H]2CC[C@H]1N2C,recombinant cells,"binding, radioligand binding",,,Kd,26 nM
CCCCCOc1ccc(-c2ccc(-c3ccc(C(=O)N[C@H]4C[C@@H](O)[C@@H](O)NC(=O)[C@@H]5[C@@H](O)[C@@H](C)CN5C(=O)[C@H]([C@@H](C)O)NC(=O)[C@H]([C@H](O)[C@@H](O)c5ccc(O)cc5)NC(=O)[C@@H]5C[C@@H](O)CN5C(=O)[C@H]([C@@H](C)O)NC4=O)cc3)cc2)cc1,,,typical invasive aspergillosis patient,"200/100 mg, male 70 kg",mean clearance,1.2 L/h
Nc1ncc(-c2nc(N3CCOCC3)nc(N3CCOCC3)n2)c(C(F)F)n1,"Phosphatidylinositol 4,5-bisphosphate 3-kinase catalytic subunit alpha isoform (PIK3CA, Homo sapiens, UniProt P42336, C420R)",KinomeScan competition binding,,10 µM,remaining binding,0%
NC1CCCCC1N.O=C([O-])C(=O)[O-].[Pt+2] (stereo not shown),,measured: free platinum,"mouse, plasma ultrafiltrate","intravenous, 8.34 mg Pt/kg",Vd,416 mL/kg
